Measured values collected from several papers.
Compare with care: the assays were run in different laboratories. Several values in a cell are separate wells, animals, samples, runs or records. ± marks the error that the study gave.

N.N.[Cl][Pt][Cl] — IC50 (Alpha-synuclein, oligomers (SNCA, Homo sapiens, UniProt P37840); oligomer-induced calcein release, inhibitor; DOPG liposomes): 1050 nM
CCCCCCCCOc1c(Br)cc(C(c2c(O)c3ccccc3oc2=O)c2c(O)c3ccccc3oc2=O)cc1Br — IC50 (Alpha-glucosidase MAL12 (MAL12, Saccharomyces cerevisiae S288c, UniProt P53341); enzyme activity, inhibitor, absorbance; pH 6.9): 1210 nM
Cc1cc(C)cc(-c2nnc(Sc3cc(Cl)nc(Sc4ccccc4)n3)[nH]2)c1 — IC50 (Protein translocase subunit SecA (secA, Escherichia coli, UniProt P10408); ATPase activity, inhibitor): 50000 nM
CN1C(=O)[C@]23SS[C@@]1(C)C(=O)N2[C@H]1Nc2ccccc2[C@@]1([C@@]12c4ccccc4N[C@@H]1N1C(=O)[C@@]4(C)SS[C@]1(C(=O)N4C)[C@H]2O)[C@@H]3O — IC50 (Histone-lysine N-methyltransferase 2D (KMT2D, Homo sapiens, UniProt O14686); methyltransferase activity, inhibitor; together with: 1 µM [3H]SAM): > 10000 nM
CC#Cc1ccc2ccc3ccccc3c2c1 — IC50 (Cytochrome P450 1B1 (CYP1B1, Homo sapiens, UniProt Q16678); enzyme activity, inhibitor; 5 s, pH 7.4): < 50 nM
CC1(C)CC(NC(=O)C(=O)Nc2ccc(Cl)cc2)CC(C)(C)N1 — IC50 (HIV-1 BG505 SOSIP.664; inhibitor, competition ELISA; 10% DMSO): > 100000 nM
CCCCCC(=O)N[C@H](C(=O)N[C@@H](CCS(C)(=O)=O)C(=O)N[C@@H](CC(C)C)C(=O)[C@@]1(C)CO1)C(C)C — IC50 (PSMB5 (Oryctolagus cuniculus, UniProt G1T4Q9); chymotrypsin-like activity, inhibitor, fluorogenic substrate; rabbit muscle 26S proteasome): 22.5 nM
COc1ccc(CNC(=O)Nc2ncc([N+](=O)[O-])s2)cc1 — IC50 (Putative glycogen synthase kinase (Leishmania major, UniProt Q4QE15, D105E/Y102F); enzyme activity, inhibitor; 90 min, 30 °C, together with: ATP 2 µM): 13300 nM
O=[N+]([O-])c1ccc(CSc2ncnc3c2ncn3[C@@H]2O[C@H](CO)[C@@H](O)[C@H]2O)cc1 — IC50 (Equilibrative nucleoside transporter 4 (SLC29A4, Homo sapiens, UniProt Q7RTT9); transporter uptake, inhibitor, radiometric): 16800 nM
C/C=C1\NC(=O)[C@@H](NC(=O)[C@@H](NC(=O)[C@H](C)NC(=O)C/C(C)=C/Cl)[C@@H](C)CC)[C@@H](C)OC(=O)[C@H](C(C)C)NC(=O)[C@H](Cc2ccc(O)cc2)N(C)C(=O)[C@H](Cc2ccccc2)N2C(=O)[C@H](CC[C@H]2O)NC1=O — IC50 (Proteinase K (PROK, Engyodontium album, UniProt P06873); enzyme activity, inhibitor, fluorescence; pH 7.4): 104 nM
COc1ccc(NC(=O)N2CCCCN3[C@H](CN4CCN(C)CC4)[C@H](c4ccc(C#Cc5ccccc5)cc4)[C@@H]3C2)cc1 — IC50 (Phenylalanine--tRNA ligase alpha subunit (Plasmodium falciparum, UniProt Q8I246); aminoacylation activity, inhibitor): 233 nM
O=C(NCCCCCCCCn1ccc2ccc(F)cc21)Oc1ccccc1 — IC50 (Cholinesterase (BCHE, Equus caballus, UniProt P81908); enzyme activity, inhibitor, HPLC): 3200 nM and ~4000 nM
CC[C@H](C)[C@H](NC(=O)[C@H](CC(N)=O)NC(=O)[C@H](Cc1c[nH]cn1)NC(=O)[C@@H](NC(=O)[C@H](CCC(N)=O)NC(=O)[C@H](CCCNC(=N)N)NC(=O)[C@H](CCSC)NC(=O)[C@H](C)N)[C@@H](C)O)C(=O)N[C@@H](Cc1ccccc1)C(=O)N[C@@H](Cc1ccccc1)C(=O)N[C@@H](CC(N)=O)C(=O)N[C@@H](Cc1ccccc1)C(=O)N[C@@H](Cc1ccccc1)C(=O)N[C@@H](CCCCN)C(=O)N[C@@H](CCCNC(=N)N)C(=O)N[C@@H](CCCNC(=N)N)C(=O)O — IC50 (histidine kinase ComD (Streptococcus pneumoniae serotype 4, UniProt A0A0H2US84); reporter gene, antagonist; Streptococcus pneumoniae, TIGR4 comX::lacZ; 30 min, 37 °C, together with: CSP2 250 nM): > 10000 nM
CC(C)C[C@H](NC(=O)OCc1ccccc1)C(=O)N[C@@H](CC1CCNC1=O)C(O)S(=O)(=O)O (stereo partly drawn) — IC50 (Replicase polyprotein 1ab, main protease (Feline coronavirus, UniProt Q98VG9); enzyme activity, inhibitor, FRET): 180 nM
Cc1cc(NC(=O)Nc2ccc(N(C)C)cc2)c2cc(F)cc(F)c2n1 — IC50 (Orexin/Hypocretin receptor type 1 (HCRTR1, Homo sapiens, UniProt O43613); reporter gene, antagonist, luciferase): 180 nM
CN[C@@](C)(C[18F])C(=O)O — tissue uptake (SCID mouse U87 xenograft, lung; 120 min, post injection): 1.9 ± 0.3 %ID/g
eburicol — IC50 (Cybb/Cyba (Mus musculus, UniProt Q61093+Q61462); ROS production; BV-2 cell lysate; together with: NADPH 200 µM): > 50000 nM
CC(=O)Nc1ccc2ccn(-c3cc(NCC4COC4)n4ncc(C#N)c4n3)c2c1 — IC50 (Casein kinase II subunit alpha' (CSNK2A2, Homo sapiens, UniProt P19784); target engagement in cells, BRET): 200 nM
